Published values of several laboratories.
Numbers after ± are the reported error.

Compound | test | test system | setting | measurement | result
CCCC[C@H](NC(=O)COCCOCCNC(=O)CN1CCN(CC(=O)O)CCN(CC(=O)O)CC1)C(=O)N[C@H]1CC(=O)NCCCC[C@@H](C(N)=O)NC(=O)[C@H](Cc2c[nH]c3ccccc23)NC(=O)[C@H](CCCNC(=N)N)NC(=O)[C@@H](Cc2ccccc2)NC(=O)[C@H](Cc2c[nH]cn2)NC1=O [copper-64 labelled] | – | C57 mice, spleen | intravenous, 0.37 MBq, 0.5 h | tissue uptake | 1.88 ± 0.67 %ID/g
CCCC[C@H](NC(=O)CNC(=O)CNC(=O)CN1CCN(CC(=O)O)CCN(CC(=O)O)CC1)C(=O)N[C@H]1CC(=O)NCCCC[C@@H](C(N)=O)NC(=O)[C@H](Cc2c[nH]c3ccccc23)NC(=O)[C@H](CCCNC(=N)N)NC(=O)[C@@H](Cc2ccccc2)NC(=O)[C@H](Cc2c[nH]cn2)NC1=O [technetium-99m labelled] | – | C57 mouse, skin | iv, 0.037 MBq, 24 h | tissue uptake | 0.12 ± 0.12 %ID/g
CCCC[C@@H]1NC(=O)[C@@H](CC(C)C)NC(=O)[C@H](CCCCNC(=O)CN2CCN(CC(=O)O)CCN(CC(=O)O)CC2)NC(=O)NNC(=O)[C@H](Cc2c[nH]cn2)NC(=O)[C@@H](Cc2c[nH]c3ccccc23)NC1=O [copper-64 labelled] | item: 64Cu | mouse plasma | 37 °C | plasma protein binding | 26%
CN1C(=O)[C@@H](Cc2ccc(O)cc2)NC(=O)CNC(=O)[C@H](Cc2ccc3ccccc3c2)NC(=O)[C@H](CCCNC(=N)N)NC(=O)[C@H]1CCCNC(=O)c1ccc(CNC(=O)CN2CCN(CC(=O)O)CCN(CC(=O)O)CCN(CC(=O)O)CC2)cc1 [gallium-68 labelled] | – | adult reference man, from C57BL/6 mice data, red marrow | – | absorbed dose coefficient | 0.00867 mGy/MBq
N=C(N)NCCC[C@@H]1NC(=O)[C@H](CCCCNC(=O)CNC(=O)CNC(=O)CNC(=O)CC[C@H](NC(=O)CNC(=O)CNC(=O)CNC(=O)CN2CCN(CC(=O)O)CCN(CC(=O)O)CCN(CC(=O)O)CC2)C(=O)NCC(=O)NCC(=O)NCC(=O)NCCCC[C@@H]2NC(=O)[C@@H](Cc3ccccc3)NC(=O)[C@H](CC(=O)O)NC(=O)CNC(=O)[C@H](CCCNC(=N)N)NC2=O)NC(=O)[C@@H](Cc2ccccc2)NC(=O)[C@H](CC(=O)O)NC(=O)CNC1=O [copper-64 labelled] | – | athymic nu/nu mouse, female, kidney | intravenous, 0.5 h | tissue uptake | 8.83 ± 0.96 %ID/g
CC(C)[C@@H](NC(=O)[C@@H](C)c1cccc(C(=O)c2ccccc2)c1)C(=O)N[C@H](CCC(=O)O)C(=O)N[C@@H](C(=O)N[C@H](CCC(=O)O)C(=O)O)C(C)C | – | water | – | minimum gelation concentration | ≥ 5 mM
CCCC[C@H](NC(=O)CNC(=O)CNC(=O)CN1CCN(CC(=O)O)CCN(CC(=O)O)CCN(CC(=O)O)CC1)C(=O)N[C@H]1CC(=O)NCCCC[C@@H](C(N)=O)NC(=O)[C@H](Cc2c[nH]c3ccccc23)NC(=O)[C@H](CCCNC(=N)N)NC(=O)[C@@H](Cc2ccccc2)NC(=O)[C@H](Cc2c[nH]cn2)NC1=O [lutetium-177 labelled] | – | C57 mouse, female, muscle | intravenous, 0.037 MBq, 2 h | tissue uptake | 0.17 ± 0.09 %ID/g
CSCC[C@H](NC(=O)[C@H](CC(=O)O)NC(=O)[C@H](CO)NC(=O)[C@H](Cc1c[nH]cn1)NC(=O)[C@H](Cc1c[nH]c2ccccc12)NC(=O)CN1CCN(CC(=O)O)CCN(CC(=O)O)CCN(CC(=O)O)CC1)C(=O)N[C@@H](CCC(=O)O)C(=O)N[C@@H](Cc1c[nH]c2ccccc12)C(=O)N[C@@H](Cc1c[nH]c2ccccc12)C(=O)N[C@@H](Cc1ccc(O)cc1)C(=O)N[C@@H](CC(C)C)C(=O)N[C@@H](CC(C)C)C(=O)NCC(=O)N[C@@H](CCCCNC(=O)COCCOCCNC(=O)CCN1C(=O)C=CC1=O)C(=O)O [copper-64 labelled] | radio-HPLC | PBS | 24 h, pH 7.4, 37 °C | intact compound | > 85%
N=C(N)NCCC[C@@H]1NC(=O)[C@H](CCCCNC(=O)CCC(C(=O)O)N2CCCN3CCN(CCCN(CC(=O)O)CC3)CC2)NC(=O)[C@@H](Cc2ccc(O)cc2)NC(=O)[C@H](CC(=O)O)NC(=O)CNC1=O (stereo partly drawn) [copper-64 labelled] | – | SCID mouse | intravenous, dose not given, 24 h | dose excreted | 94.7 ± 3.6%
CC(C)C[C@H](NC(=O)[C@@H](CCCCNC(=O)CCCCCNC(=O)CN1CCN(CC(=O)O)CCN(CC(=O)O)CCN(CC(=O)O)CC1)NC(=O)[C@H](Cc1ccc(O)cc1)NC(=O)[C@H](CO)NC(=O)[C@H](Cc1c[nH]c2ccccc12)NC(=O)[C@H](Cc1cnc[nH]1)NC(=O)[C@@H]1CCC(=O)N1)C(=O)N[C@@H](CCCNC(=N)N)C(=O)N1CCC[C@H]1C(=O)NCC(N)=O [indium-111 labelled] | – | female athymic nude mouse, skin | intravenous, 0.037 MBq, 4 h | tissue uptake | 0.24 ± 0.03 %ID/g
C[C@@H](O)[C@@H]1NC(=O)[C@H](CCCCN)NC(=O)[C@@H](Cc2c[nH]c3ccccc23)NC(=O)[C@H](Cc2ccc(O)cc2)NC(=O)[C@@H](NC(=O)[C@@H](Cc2ccccc2)NC(=O)CN2CCN(CC(=O)O)CCN(CC(=O)O)CCN(CC(=O)O)CC2)CSSC[C@@H](C(=O)N[C@H](CO)[C@@H](C)O)NC1=O [gallium-67 labelled] | radio-TLC | mouse plasma | 24 h, 37 °C, 67Ga-labelled | remaining intact | 82.8 ± 0.9%
N=C(N)NCCC[C@@H]1NC(=O)[C@H](CCCCNC(=O)CNC(=O)CNC(=O)CNC(=O)CC[C@H](NC(=O)CNC(=O)CNC(=O)CNC(=O)CC[C@H](NC(=O)CN2CCN(CC(=O)O)CCN(CC(=O)O)CCN(CC(=O)O)CC2)C(=O)NCC(=O)NCC(=O)NCC(=O)N[C@@H](CCC(=O)NCC(=O)NCC(=O)NCC(=O)NCCCC[C@@H]2NC(=O)[C@@H](Cc3ccccc3)NC(=O)[C@H](CC(=O)O)NC(=O)CNC(=O)[C@H](CCCNC(=N)N)NC2=O)C(=O)NCC(=O)NCC(=O)NCC(=O)NCCCC[C@@H]2NC(=O)[C@@H](Cc3ccccc3)NC(=O)[C@H](CC(=O)O)NC(=O)CNC(=O)[C@H](CCCNC(=N)N)NC2=O)C(=O)NCC(=O)NCC(=O)NCC(=O)NCCCC[C@@H]2NC(=O)[C@@H](Cc3ccccc3)NC(=O)[C@H](CC(=O)O)NC(=O)CNC(=O)[C@H](CCCNC(=N)N)NC2=O)NC(=O)[C@@H](Cc2ccccc2)NC(=O)[C@H](CC(=O)O)NC(=O)CNC1=O [indium-111 labelled] | – | female athymic nu/nu mice, eyes | intravenous, 4 h | tissue uptake | 1.61 ± 1.38 %ID/g

For quick reference, copied from above:
Compound | test | test system | setting | measurement | result
N=C(N)NCCC[C@@H]1NC(=O)[C@H](CCCCNC(=O)CCC(C(=O)O)N2CCCN3CCN(CCCN(CC(=O)O)CC3)CC2)NC(=O)[C@@H](Cc2ccc(O)cc2)NC(=O)[C@H](CC(=O)O)NC(=O)CNC1=O (stereo partly drawn) [copper-64 labelled] | – | SCID mouse | intravenous, dose not given, 24 h | dose excreted | 94.7 ± 3.6%
